Measured values from different studies.
Each line is one published result; not all experiments were run side by side. Values joined by “and” are separate records of one study, mostly repeats; a detail may differ. Numbers after ± are the reported error.
inhA: Enoyl-[acyl-carrier-protein] reductase [NADH] (inhA, Mycobacterium tuberculosis, UniProt P9WGR1)
FYN G534I/P533E/Q532E: Tyrosine-protein kinase Fyn (FYN, Homo sapiens, UniProt P06241, G534I/P533E/Q532E)
ACHE: Acetylcholinesterase (ACHE, Homo sapiens, UniProt P22303)

The chains behind the UniProt entries cited, without tags or fusion partners. Where a name states a change or a piece, a line headed by the entry shows the natural chain unless it says otherwise. Residues count along the entry.
UniProt P9WGR1, whole entry: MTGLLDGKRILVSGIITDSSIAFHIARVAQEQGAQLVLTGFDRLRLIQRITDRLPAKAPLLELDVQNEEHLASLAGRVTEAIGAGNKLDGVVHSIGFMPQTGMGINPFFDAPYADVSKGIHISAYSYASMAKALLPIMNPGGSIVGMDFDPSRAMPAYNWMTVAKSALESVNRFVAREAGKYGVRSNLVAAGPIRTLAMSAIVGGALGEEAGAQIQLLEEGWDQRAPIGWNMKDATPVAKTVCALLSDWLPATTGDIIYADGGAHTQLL
UniProt P06241, whole entry, looked up: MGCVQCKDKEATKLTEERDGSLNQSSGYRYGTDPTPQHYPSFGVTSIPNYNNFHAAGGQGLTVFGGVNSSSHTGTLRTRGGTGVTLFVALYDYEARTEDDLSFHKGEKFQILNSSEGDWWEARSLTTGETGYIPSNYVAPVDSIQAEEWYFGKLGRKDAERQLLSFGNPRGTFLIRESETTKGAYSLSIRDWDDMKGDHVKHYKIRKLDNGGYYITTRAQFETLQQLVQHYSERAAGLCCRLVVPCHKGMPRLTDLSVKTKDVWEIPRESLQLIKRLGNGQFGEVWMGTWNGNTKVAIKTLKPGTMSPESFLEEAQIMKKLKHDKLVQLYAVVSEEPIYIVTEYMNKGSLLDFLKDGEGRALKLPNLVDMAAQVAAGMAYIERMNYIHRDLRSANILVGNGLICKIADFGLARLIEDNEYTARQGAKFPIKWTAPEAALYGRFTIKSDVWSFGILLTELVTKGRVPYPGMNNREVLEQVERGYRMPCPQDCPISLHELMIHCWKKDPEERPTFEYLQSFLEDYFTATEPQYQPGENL
UniProt P22303, whole entry, looked up: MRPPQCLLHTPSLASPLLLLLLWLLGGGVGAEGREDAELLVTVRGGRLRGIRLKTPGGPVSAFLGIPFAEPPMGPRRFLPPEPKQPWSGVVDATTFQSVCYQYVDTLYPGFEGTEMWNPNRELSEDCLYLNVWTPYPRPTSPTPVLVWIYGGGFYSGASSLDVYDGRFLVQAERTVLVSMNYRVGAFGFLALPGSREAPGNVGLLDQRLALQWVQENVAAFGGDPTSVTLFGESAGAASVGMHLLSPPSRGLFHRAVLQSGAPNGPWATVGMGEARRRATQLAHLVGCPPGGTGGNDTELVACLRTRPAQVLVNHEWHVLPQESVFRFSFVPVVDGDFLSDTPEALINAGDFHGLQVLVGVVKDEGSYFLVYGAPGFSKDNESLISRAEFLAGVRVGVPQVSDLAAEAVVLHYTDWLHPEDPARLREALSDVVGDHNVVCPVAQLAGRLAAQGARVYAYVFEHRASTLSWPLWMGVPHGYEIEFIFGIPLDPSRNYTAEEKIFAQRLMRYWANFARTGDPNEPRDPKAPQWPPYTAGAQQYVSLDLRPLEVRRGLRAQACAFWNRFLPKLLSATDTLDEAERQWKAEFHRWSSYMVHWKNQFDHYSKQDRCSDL
UniProt P0C0J0, 146-398 limits assumed: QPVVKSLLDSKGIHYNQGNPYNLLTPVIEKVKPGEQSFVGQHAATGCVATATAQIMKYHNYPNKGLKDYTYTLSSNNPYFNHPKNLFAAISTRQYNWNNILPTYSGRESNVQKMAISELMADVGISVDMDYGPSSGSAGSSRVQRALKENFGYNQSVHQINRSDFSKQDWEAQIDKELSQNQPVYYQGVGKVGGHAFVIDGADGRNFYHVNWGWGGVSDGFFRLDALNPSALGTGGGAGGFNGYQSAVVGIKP
UniProt P28223, whole entry: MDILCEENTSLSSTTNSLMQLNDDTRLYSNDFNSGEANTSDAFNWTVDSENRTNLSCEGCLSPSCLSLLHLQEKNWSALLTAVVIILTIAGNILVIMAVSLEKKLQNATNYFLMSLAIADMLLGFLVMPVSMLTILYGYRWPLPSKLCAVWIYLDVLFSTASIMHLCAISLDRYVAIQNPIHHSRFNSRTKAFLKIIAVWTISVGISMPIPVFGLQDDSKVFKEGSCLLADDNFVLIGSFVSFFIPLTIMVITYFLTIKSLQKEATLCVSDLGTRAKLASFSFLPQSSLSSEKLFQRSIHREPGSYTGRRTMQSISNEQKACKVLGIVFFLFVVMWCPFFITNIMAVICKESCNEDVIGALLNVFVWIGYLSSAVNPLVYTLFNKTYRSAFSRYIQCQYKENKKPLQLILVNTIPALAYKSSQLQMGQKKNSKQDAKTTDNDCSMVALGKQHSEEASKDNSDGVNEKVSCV
UniProt P35372, whole entry: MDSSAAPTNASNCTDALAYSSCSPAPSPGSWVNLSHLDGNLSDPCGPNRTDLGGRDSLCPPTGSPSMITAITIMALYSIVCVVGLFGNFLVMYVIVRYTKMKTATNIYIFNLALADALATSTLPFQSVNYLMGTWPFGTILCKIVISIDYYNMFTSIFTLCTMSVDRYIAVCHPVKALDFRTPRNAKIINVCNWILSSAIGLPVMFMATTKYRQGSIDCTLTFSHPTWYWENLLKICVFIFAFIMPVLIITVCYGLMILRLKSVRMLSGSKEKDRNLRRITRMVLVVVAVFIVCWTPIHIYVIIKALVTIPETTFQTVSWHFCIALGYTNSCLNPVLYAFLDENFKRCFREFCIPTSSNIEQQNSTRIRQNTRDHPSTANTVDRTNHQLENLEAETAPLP
UniProt I6WXK4, whole entry: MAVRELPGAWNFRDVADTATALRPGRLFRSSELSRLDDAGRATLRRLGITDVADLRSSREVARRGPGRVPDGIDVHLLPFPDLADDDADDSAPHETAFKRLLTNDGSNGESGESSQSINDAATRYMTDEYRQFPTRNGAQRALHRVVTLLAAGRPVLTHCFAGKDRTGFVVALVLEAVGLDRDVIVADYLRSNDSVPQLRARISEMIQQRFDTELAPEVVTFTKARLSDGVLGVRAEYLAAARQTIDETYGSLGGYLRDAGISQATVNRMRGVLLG
UniProt P9WNX1, whole entry: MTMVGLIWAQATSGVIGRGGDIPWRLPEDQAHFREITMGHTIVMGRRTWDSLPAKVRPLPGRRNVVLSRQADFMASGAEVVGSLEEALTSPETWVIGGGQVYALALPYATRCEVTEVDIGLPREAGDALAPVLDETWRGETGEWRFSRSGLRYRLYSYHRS

`N#Cc1ccccc1Oc1ccc(Cn2cc(C3CC3)nn2)cc1O` has a Ki of 370 ± 10 nM (inhA; enzyme activity, slow-onset inhibitor; 20 °C, final EI* complex).
`N#C[C@H](Cc1cccc(N=S(=O)(F)N2CCC(C(N)=O)CC2)c1)NC(=O)OCc1ccccc1` (stereo partly shown) gave a Ki of 18 ± 1 nM (Streptopain (Streptococcus pyogenes, UniProt P0C0J0); enzyme activity, inhibitor).
For `N#Cc1ccccc1Oc1ccc(Cn2cc(C3CCCC3)nn2)cc1O`, the Ki was 350 ± 70 nM (inhA; enzyme activity, slow-onset inhibitor; 20 °C, final EI* complex).
For `Cc1ccc(C(=O)C(C)N2CCCC2)cc1` (racemic), the Ki was 3200 nM and < 3500 nM (5-hydroxytryptamine receptor 2A (HTR2A, Homo sapiens, UniProt P28223); with: [3H]ketanserin).
`CN1CC[C@]23c4c5ccc(O)c4O[C@H]2c2ncc(-c4ccc(Cl)cc4)cc2C[C@@]3(OCCCc2ccccc2)[C@H]1C5` gave a Ki of 19.7 ± 0.9 nM (Mu-type opioid receptor (OPRM1, Homo sapiens, UniProt P35372); binding, [3H]diprenorphine displacement; CHO membranes).
The Ki of `Nc1ncnc2c1c(-c1cnc3[nH]ccc3c1)nn2C1CCCC1` is reported as 260 nM (FYN G534I/P533E/Q532E; inhibitor).
`O=C(O)c1cc2cc(Cl)cc(OCc3cn(CCC(=O)N4CCC(c5ccc(Cl)c(Cl)c5)CC4)nn3)c2c(Cl)c1OCc1cn(CCC(=O)N2CCC(c3ccc(Cl)c(Cl)c3)CC2)nn1` gave a Ki of 160 nM and 162 nM (Triple specificity protein phosphatase PtpB (ptpB, Mycobacterium tuberculosis, UniProt I6WXK4); inhibitor).
`CCN(CC)Cc1cc(N)ccc1O` has a Ki of 6300 ± 900 nM (ACHE; enzyme activity, competitive inhibitor; with: acetylthiocholine).
`c1cc[n+](CCCCCCCCCC[n+]2cccc3ccccc32)cc1` has a Ki of 400 nM (ACHE; enzyme activity, inhibitor).
With `Cc1ccccc1Oc1ccc(Cn2cc(C3CC3)nn2)cc1O` the Ki was 17000 ± 3000 nM (inhA; enzyme activity, slow-onset inhibitor; 20 °C, initial EI complex).
`CC(C)n1nc(-c2ccc3c(c2)OCO3)c2c(N)ncnc21` has a Ki of 5200 nM (FYN G534I/P533E/Q532E; inhibitor).
For `N#Cc1ccccc1Oc1ccc(Cn2cc(C3CCCCC3)nn2)cc1O`, the Ki was 6300 ± 1300 nM (inhA; enzyme activity, slow-onset inhibitor; 20 °C, initial EI complex).
`CCOC(=O)CC[C@H](NC(=O)c1ccc(N(C)Cc2cnc3nc(N)nc(N)c3n2)cc1)C(=O)OCC` gave a Ki of 12.2 ± 0.15 nM (Dihydrofolate reductase (folA, Mycobacterium tuberculosis, UniProt P9WNX1)).
